Experimental data gathered from unrelated publications.
Each numbered part is a random draw from the data of one study; scales do not carry over between parts. ± gives the spread as reported.
Chain of UniProt Q9NY46 (whole entry, looked up): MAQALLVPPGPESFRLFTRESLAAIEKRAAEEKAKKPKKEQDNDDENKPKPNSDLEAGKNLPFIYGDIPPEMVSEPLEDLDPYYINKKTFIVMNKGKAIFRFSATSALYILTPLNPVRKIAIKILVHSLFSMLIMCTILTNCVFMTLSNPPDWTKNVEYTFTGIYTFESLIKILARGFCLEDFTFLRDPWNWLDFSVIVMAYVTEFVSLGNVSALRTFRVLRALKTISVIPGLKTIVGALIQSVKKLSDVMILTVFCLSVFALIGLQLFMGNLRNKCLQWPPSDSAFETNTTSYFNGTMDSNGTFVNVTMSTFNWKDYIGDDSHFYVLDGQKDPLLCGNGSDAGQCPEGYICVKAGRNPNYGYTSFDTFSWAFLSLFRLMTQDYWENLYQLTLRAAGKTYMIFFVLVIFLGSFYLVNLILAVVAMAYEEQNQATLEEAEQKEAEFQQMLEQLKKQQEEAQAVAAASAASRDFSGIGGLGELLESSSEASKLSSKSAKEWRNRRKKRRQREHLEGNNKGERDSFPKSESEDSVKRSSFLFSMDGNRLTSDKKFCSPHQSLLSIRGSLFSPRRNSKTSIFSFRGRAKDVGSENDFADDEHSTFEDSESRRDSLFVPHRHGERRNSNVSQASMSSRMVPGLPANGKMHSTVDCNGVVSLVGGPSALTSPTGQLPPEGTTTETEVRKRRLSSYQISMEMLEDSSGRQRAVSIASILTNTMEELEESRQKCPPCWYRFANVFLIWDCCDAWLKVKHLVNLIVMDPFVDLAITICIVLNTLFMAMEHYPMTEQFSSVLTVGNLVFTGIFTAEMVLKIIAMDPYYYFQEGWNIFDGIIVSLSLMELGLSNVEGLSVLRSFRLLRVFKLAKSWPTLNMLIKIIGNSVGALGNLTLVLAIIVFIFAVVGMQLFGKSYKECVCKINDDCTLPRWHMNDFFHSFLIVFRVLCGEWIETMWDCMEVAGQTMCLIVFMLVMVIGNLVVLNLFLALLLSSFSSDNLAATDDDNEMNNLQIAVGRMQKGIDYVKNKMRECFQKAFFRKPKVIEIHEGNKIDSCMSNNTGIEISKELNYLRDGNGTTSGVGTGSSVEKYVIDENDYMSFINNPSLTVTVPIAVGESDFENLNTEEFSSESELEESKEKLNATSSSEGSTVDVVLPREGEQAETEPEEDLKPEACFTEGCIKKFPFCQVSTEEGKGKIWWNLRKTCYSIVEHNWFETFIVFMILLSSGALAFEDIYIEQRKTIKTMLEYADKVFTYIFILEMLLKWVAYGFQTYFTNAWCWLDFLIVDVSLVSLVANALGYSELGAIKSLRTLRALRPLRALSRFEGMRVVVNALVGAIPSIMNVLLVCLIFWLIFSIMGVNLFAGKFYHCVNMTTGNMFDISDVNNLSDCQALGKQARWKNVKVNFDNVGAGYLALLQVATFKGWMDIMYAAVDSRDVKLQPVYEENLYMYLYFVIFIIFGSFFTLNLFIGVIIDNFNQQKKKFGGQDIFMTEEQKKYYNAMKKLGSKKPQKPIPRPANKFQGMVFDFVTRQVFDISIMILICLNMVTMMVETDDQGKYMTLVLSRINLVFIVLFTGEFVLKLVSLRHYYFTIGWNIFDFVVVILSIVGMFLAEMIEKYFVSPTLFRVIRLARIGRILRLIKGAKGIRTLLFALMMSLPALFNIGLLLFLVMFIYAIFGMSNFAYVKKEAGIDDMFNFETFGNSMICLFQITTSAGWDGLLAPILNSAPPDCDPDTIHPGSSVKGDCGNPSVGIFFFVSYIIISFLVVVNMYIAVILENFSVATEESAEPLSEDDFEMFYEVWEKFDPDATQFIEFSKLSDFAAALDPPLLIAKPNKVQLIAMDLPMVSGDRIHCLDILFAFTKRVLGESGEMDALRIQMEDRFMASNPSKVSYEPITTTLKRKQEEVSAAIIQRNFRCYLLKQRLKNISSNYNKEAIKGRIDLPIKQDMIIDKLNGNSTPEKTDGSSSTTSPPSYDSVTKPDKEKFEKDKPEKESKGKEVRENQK

Series 1
Host: Kunming mice both sexes
Route: intraperitoneal
Time: 7 days
| Structure (SMILES) | LD50 [mg/kg] |
| --- | --- |
| CCC1NC2CC3(C(=O)N(OC)c4cc(OC)ccc43)C3OCC2C1C3O (centres unmarked) | 0.17 |
| CON1C(=O)C2(CC3N=C(C(C)=O)C4CC2OCC34)c2ccccc21 (centres unmarked) | > 30 |
| CCC1=NC2CC3(C(=O)N(OC)c4ccccc43)C3OCC2C1(O)C3O (centres unmarked) | 3.59 |

Single results of other studies
had: had (Sphingobium sp. TCM1, UniProt A0A077JBW9)
| SMILES | target or system | assay | system | conditions | measurement | result |
| --- | --- | --- | --- | --- | --- | --- |
| CO[P@@](=O)(Oc1ccccc1)Oc1ccc([N+](=O)[O-])cc1 | had | p-nitrophenyl substrate hydrolysis, substrate |  |  | Km | 61 ± 7 µM |
| CC[C@H](C)[C@H](NC(=O)[C@H](Cc1ccccc1)NC(=O)[C@H](CC(=O)O)NC(=O)[C@H](CCCCN)NC(=O)[C@H](C)NC(=O)[C@H](CCCCN)NC(=O)[C@H](CC(N)=O)NC(=O)[C@H](CC(C)C)NC(=O)[C@H](Cc1c[nH]c2ccccc12)NC(=O)[C@H](CCC(=O)O)NC(=O)[C@H](CCCCN)NC(=O)[C@@H](NC(=O)CNC(=O)[C@H](C)N)[C@@H](C)O)C(=O)N[C@@H](CCCCN)C(=O)N[C@@H](CCC(=O)O)C(=O)N[C@@H](CCCCN)C(=O)NCC(=O)N[C@@H](CC(C)C)C(=O)N[C@@H](CCC(=O)O)C(=O)N[C@@H](CCSC)C(=O)N[C@@H](CC(C)C)C(=O)N[C@@H](CO)C(=O)N[C@@H](C)C(=O)N[C@@H](C)C(=O)N[C@@H](C)C(=O)N[C@@H](CC(N)=O)C(=O)N[C@@H](C)C(=O)N[C@@H](C)C(=O)N[C@@H](CC(C)C)C(=O)N[C@@H](CC(N)=O)C(=O)O | Lucilia cuprina |  |  | thorax injection, 1 h | PD50 | > 50 nmol/g |
| CC(C)C[C@@H]1NC(=O)[C@H](CCCNC(=N)N)NC(=O)[C@@H]2CCCN2C(=O)[C@@H]2CSSC[C@H](NC(=O)CNC(=O)[C@@H]3CCCN3C(=O)[C@H](CCCCN)NC(=O)[C@H](CC(=O)O)NC(=O)[C@@H](NC(=O)CN)C(C)C)C(=O)N[C@@H](CCCNC(=N)N)C(=O)N[C@@H](Cc3ccc(O)cc3)C(=O)N[C@@H](CC(C)C)C(=O)N[C@@H](Cc3ccccc3)C(=O)NCC(=O)NCC(=O)N[C@H]3CSSC[C@H](NC(=O)CNC1=O)C(=O)N[C@@H](CCCCN)C(=O)NCC(=O)N[C@@H](CCCCN)C(=O)NCC(=O)N[C@@H](Cc1c[nH]cn1)C(=O)N[C@@H](CC(=O)O)C(=O)N[C@@H](Cc1ccc(O)cc1)C(=O)N[C@H](C(=O)N[C@@H](C)C(=O)N[C@@H](Cc1c[nH]c4ccccc14)C(=O)N[C@@H](CC(=O)O)C(=O)NCC(=O)N[C@H](C(=O)N[C@@H](Cc1ccccc1)C(=O)N[C@@H](CO)C(=O)N[C@@H](CC(=O)O)C(=O)O)[C@@H](C)O)CSSC[C@H](NC(=O)[C@H](CC(=O)O)NC(=O)[C@H](CC(=O)O)NC(=O)[C@H](CC(=O)O)NC(=O)[C@H](CO)NC(=O)[C@H](CCCCN)NC3=O)C(=O)N2 |  |  | mouse small DRG neurons | concentration not given | neurons depolarized at ramp end | 30% |
| CC[C@H](C)[C@H](NC(=O)[C@H](C)NC(=O)[C@H](CCC(N)=O)NC(=O)[C@@H](NC(=O)[C@@H](NC(=O)[C@@H]1CCCN1C(=O)[C@@H]1CCCN1C(=O)[C@@H](NC(=O)[C@H](CCSC)NC(=O)[C@H](CC(C)C)NC(=O)[C@H](CC(C)C)NC(=O)[C@H](CO)NC(=O)CNC(=O)[C@H](CC(C)C)NC(=O)[C@@H](NC(=O)[C@H](CC(C)C)NC(=O)[C@H](CC(C)C)NC(=O)[C@@H]1CCCN1C(=O)[C@H](CC(C)C)NC(=O)[C@@H](N)Cc1ccccc1)[C@@H](C)CC)[C@@H](C)O)C(C)C)[C@@H](C)CC)C(=O)N[C@@H](Cc1c[nH]cn1)C(=O)N[C@@H](CC(=O)O)C(=O)N[C@@H](C)C(=O)N[C@@H](CCC(N)=O)C(=O)N[C@@H](CCCNC(=N)N)C(N)=O | Sodium channel protein type 3 subunit alpha (SCN3A, Homo sapiens, UniProt Q9NY46) | sodium current, agonist, whole-cell patch clamp | HEK293 stably expressing NaV1.3 | 0.1% DMSO, hold -100 mV | EC50 | 1.04 ± 0.015 µM |
| CO[P@](=O)(Oc1ccc([N+](=O)[O-])cc1)OC(C)C | had | p-nitrophenyl substrate hydrolysis, substrate |  |  | Km | 2300 ± 900 µM |

Excerpt of the above (series 1):
| Structure (SMILES) | LD50 [mg/kg] |
| --- | --- |
| CON1C(=O)C2(CC3N=C(C(C)=O)C4CC2OCC34)c2ccccc21 (centres unmarked) | > 30 |
